Results of several laboratories.
Several values in a cell are separate wells, animals, samples, runs or records. Numbers after ± are the reported error.
Palmitoyl-protein thioesterase 1: Palmitoyl-protein thioesterase 1 (Homo sapiens, UniProt P50897)
Sequence of UniProt P50897 (whole entry, looked up): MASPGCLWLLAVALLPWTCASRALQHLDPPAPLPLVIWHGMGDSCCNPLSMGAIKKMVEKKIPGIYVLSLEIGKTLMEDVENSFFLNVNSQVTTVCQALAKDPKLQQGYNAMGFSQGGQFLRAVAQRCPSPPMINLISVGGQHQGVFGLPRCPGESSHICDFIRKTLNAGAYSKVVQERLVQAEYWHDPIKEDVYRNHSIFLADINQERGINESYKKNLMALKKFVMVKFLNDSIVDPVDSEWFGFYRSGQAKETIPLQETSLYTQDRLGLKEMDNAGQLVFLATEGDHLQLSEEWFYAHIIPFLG
Luciferin 4-monooxygenase: Luciferin 4-monooxygenase (Photinus pyralis, UniProt P08659)
Sequence of UniProt P08659 (whole entry, looked up): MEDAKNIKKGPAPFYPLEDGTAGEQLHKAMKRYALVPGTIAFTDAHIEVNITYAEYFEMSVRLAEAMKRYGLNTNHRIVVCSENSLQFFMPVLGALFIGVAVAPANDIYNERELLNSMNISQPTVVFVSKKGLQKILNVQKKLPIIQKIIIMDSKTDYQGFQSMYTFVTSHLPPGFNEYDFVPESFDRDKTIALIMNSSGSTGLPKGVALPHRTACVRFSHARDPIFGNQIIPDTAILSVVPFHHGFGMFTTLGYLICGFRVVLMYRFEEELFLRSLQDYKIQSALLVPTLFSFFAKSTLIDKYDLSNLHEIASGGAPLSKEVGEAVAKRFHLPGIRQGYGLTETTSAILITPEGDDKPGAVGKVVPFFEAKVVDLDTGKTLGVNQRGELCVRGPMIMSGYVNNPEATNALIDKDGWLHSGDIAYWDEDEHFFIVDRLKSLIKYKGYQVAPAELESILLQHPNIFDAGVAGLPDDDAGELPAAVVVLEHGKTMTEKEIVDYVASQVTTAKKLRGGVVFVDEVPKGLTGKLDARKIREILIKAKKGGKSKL
DRD1: D(1A) dopamine receptor (DRD1, Homo sapiens, UniProt P21728)
Sequence of UniProt P21728 (whole entry, looked up): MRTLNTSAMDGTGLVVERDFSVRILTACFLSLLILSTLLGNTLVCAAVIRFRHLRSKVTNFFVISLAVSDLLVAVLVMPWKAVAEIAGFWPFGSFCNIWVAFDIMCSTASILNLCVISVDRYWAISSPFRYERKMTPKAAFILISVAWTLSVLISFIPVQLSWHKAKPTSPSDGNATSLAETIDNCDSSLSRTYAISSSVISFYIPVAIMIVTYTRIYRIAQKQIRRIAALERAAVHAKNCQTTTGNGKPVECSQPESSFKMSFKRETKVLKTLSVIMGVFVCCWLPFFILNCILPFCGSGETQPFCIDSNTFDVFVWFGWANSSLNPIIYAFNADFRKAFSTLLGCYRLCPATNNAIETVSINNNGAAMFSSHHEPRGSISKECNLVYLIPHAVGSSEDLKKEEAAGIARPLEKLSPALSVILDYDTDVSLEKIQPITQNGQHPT
Sequence of UniProt P28566 (whole entry, looked up): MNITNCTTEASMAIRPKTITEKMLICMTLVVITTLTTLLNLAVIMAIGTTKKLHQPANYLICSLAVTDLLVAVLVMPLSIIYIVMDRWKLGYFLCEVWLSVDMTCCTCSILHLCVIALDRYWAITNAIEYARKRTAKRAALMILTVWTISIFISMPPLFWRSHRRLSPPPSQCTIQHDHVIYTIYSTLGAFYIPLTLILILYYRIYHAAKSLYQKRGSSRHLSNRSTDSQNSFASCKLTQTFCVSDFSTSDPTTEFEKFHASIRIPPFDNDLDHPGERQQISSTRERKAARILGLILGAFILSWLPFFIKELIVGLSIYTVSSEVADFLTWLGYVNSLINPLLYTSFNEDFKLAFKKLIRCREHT
Sequence of UniProt P08253 (whole entry, looked up): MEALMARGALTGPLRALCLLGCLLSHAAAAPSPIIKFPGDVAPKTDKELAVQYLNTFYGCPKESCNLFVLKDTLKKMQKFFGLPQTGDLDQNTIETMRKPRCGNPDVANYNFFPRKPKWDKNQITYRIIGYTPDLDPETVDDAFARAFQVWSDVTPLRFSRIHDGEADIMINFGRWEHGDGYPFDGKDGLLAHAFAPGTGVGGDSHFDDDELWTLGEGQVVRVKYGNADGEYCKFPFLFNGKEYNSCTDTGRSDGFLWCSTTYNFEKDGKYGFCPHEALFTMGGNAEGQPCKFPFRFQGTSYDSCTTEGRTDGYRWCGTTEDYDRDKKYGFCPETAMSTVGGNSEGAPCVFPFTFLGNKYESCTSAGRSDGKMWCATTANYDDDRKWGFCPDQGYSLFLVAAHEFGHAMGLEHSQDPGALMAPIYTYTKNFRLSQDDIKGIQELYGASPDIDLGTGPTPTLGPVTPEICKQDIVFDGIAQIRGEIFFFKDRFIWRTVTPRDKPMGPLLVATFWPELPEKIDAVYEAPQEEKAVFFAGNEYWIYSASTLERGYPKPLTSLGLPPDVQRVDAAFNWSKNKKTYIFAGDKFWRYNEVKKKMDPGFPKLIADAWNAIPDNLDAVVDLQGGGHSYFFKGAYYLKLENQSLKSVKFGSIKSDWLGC
Sequence of UniProt Q13976 (whole entry, looked up): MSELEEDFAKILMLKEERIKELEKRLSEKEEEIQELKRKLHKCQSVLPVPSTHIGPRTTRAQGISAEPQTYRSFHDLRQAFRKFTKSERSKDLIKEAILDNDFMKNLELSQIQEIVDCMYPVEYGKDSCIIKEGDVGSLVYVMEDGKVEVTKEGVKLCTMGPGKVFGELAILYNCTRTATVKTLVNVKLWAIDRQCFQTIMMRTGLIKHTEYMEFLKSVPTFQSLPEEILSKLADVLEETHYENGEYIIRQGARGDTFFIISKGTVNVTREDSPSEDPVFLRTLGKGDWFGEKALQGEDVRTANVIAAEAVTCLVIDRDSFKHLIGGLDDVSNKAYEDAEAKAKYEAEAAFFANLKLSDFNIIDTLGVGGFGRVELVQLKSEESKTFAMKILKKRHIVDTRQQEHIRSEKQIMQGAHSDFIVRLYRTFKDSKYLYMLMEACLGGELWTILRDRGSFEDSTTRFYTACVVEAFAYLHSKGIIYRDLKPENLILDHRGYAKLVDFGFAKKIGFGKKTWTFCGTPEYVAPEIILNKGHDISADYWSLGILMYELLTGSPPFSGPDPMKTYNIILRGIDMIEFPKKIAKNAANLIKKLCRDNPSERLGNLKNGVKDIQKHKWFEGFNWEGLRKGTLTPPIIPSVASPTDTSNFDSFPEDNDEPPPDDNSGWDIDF
Sequence of UniProt Q9C0K7 (whole entry, looked up): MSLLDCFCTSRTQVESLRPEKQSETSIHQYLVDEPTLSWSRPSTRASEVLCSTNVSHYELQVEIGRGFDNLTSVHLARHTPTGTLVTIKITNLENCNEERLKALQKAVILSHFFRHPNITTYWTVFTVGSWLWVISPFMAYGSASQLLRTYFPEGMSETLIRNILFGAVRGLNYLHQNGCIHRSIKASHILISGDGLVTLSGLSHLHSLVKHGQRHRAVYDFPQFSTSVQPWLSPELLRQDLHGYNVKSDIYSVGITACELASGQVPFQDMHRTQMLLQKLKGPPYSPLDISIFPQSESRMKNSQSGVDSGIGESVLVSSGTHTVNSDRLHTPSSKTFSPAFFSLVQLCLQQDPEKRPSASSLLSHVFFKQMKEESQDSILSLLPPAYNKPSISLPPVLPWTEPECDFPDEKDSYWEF
Sequence of UniProt P23975 (whole entry, looked up): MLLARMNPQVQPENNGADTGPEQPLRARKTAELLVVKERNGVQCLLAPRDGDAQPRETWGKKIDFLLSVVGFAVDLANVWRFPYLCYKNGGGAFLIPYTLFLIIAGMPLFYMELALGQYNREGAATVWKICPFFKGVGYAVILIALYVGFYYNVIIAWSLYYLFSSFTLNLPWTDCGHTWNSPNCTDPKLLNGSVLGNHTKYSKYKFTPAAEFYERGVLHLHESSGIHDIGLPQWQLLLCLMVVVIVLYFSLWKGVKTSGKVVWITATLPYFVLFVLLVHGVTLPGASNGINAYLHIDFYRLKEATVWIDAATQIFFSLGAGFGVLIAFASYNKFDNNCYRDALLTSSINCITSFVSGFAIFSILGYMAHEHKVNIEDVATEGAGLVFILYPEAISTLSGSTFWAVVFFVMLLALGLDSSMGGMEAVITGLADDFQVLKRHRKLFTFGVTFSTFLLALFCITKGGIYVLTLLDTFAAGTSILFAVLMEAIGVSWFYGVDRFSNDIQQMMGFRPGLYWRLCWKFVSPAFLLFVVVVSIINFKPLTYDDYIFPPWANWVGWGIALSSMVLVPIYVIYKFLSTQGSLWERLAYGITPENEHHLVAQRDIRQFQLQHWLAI
Sequence of UniProt P07237 (whole entry, looked up): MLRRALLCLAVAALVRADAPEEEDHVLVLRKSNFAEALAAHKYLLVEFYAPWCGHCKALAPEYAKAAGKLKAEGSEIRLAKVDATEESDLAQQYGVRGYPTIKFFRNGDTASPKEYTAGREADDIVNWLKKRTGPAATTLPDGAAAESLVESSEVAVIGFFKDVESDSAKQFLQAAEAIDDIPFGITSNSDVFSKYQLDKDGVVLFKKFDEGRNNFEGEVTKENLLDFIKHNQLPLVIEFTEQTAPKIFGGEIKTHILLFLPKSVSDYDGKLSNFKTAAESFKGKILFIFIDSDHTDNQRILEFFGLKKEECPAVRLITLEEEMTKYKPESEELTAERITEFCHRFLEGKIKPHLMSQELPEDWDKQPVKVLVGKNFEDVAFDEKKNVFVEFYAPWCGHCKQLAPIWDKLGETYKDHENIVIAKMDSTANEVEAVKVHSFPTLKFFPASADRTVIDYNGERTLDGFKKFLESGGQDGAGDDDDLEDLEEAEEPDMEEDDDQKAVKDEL

CCCCOC(=O)c1ccc(O)cc1 has an inhibition of 70% (Palmitoyl-protein thioesterase 1; Spectrum Collection screen; concentration not given, together with: substrate 20 µM).
Cc1cc(NS(=O)(=O)c2ccc(N=NN(C)O)cc2)no1 gave an inhibition of 12.5 ± 1.38% (α-glucosidase, rat intestine; enzyme activity; 20 µg/mL, together with: 4-nitrophenyl α-D-glucopyranoside).
For CCOc1ccc(C2=NC3(CCN(C(C)=O)CC3)NC(c3ccccc3O)C2)cc1 (stereo not shown), the inhibition was 12% (Luciferin 4-monooxygenase; luciferase luminescence, inhibitor; cell-free; 50 µM, counter-screen).
The inhibition of CN1CCc2cc(Cl)c(O)cc2[C@@H](c2ccccc2)C1 is reported as 91% (DRD1; cAMP level, antagonist, TR-FRET; U2OS expressing human D1R; concentration not given, together with: dopamine 10 nM).
For COc1cc(C(=O)NS(=O)(=O)c2ccccc2C)ccc1Cc1cn(C)c2ccc(NC(=O)OC3CCCC3)cc12, the inhibition was 84.2% and 97.8% and 87.4% and 95.9% (Volume-regulated anion channel subunit LRRC8C, part LRRC8A IL1 chimera (LRRC8C, Homo sapiens, UniProt Q8TDW0, Y126F); ion current, inhibitor, whole-cell patch clamp; HCT LRRC8-/- cells; 30 µM, +100 mV).
With Cc1ccc(N(O)N=Nc2ccc(S(=O)(=O)Nc3cc(C)on3)cc2)cc1 the inhibition was 30 ± 0.791% (α-glucosidase, rat intestine; enzyme activity; 120 µg/mL, together with: 4-nitrophenyl α-D-glucopyranoside).
CC[C@@H]1[C@H](F)C(=O)N[C@@H]1COc1nccc2cc(C(N)=O)c(OC)cc12 gave an inhibition of 23.1% (STE20-related kinase adapter protein beta (Homo sapiens, UniProt Q9C0K7); ATP probe binding, KiNativ profiling, refers to: Lys1 probe site; THP-1 cell lysate; 0.04 mM).
With CCN(O)N=Nc1ccc(S(=O)(=O)Nc2nccs2)cc1 the inhibition was 20 ± 1.38% (α-glucosidase, rat intestine; enzyme activity; 60 µg/mL, together with: 4-nitrophenyl α-D-glucopyranoside).
CNc1nc(C#Cc2ccc(Cl)s2)nc2c1ncn2[C@H]1[C@H](O)[C@H](O)[C@]2(C(=O)OC)C[C@H]12 gave an inhibition of 19 ± 21% (SLC6A2 (Homo sapiens, UniProt P23975); noradrenaline uptake; HEK293; 10 µM, 10 min, together with: 20 nM [3H]noradrenaline).
Cc1noc(NS(=O)(=O)c2ccc(N=NN(O)c3ccccc3)cc2)c1C has an inhibition of 45 ± 0.18% (α-glucosidase, rat intestine; enzyme activity; 180 µg/mL, together with: 4-nitrophenyl α-D-glucopyranoside).
The inhibition of Cc1ncc([N+](=O)[O-])n1CCO is reported as 65.1% (Palmitoyl-protein thioesterase 1; Spectrum Collection screen; concentration not given, together with: substrate 20 µM).
For Cn1cnc(Br)c1C1=CN(c2ncnc3[nH]cnc23)CCS1, the inhibition was 97.9% (cGMP-dependent protein kinase 1, isoform beta (PRKG1, Homo sapiens, UniProt Q13976); enzyme activity; 2 µM).
COc1ccc(S(=O)(=O)N(CC(=O)NO)CC(C)C)cc1 has an inhibition of 72% (MMP2 (Homo sapiens, UniProt P08253); fluorometric; 1 ng/mL).
For c1cncc(OC[C@H]2CN(CCN3CCc4ccccc43)CCO2)c1, the inhibition was 52.4% (DRD1; radioligand binding; concentration not given, together with: [3H]SCH23390).
For CC(=O)N[C@H]1[C@H](Oc2ccc([N+](=O)[O-])cc2)O[C@H](CO)[C@@H](O)[C@@H]1O[C@@H]1O[C@H](CO)[C@H](O)[C@H](O)[C@H]1O, the inhibition was -3.6 ± 1% (Adhesin FmlH, lectin domain (Escherichia coli, UniProt Q1RBS0); binding to desialylated mucin, ELISA competition; UPEC UTI89; 100 µM).
For Cc1ccc(OC[C@@H]2CN(CCN3CCc4ccccc43)CCO2)cn1, the inhibition was 44.1% (DRD1; radioligand binding; concentration not given, together with: [3H]SCH23390).
O=C(OC[C@H]1O[C@@H](OC(=O)c2cc(O)c(O)c(O)c2)[C@H](OC(=O)c2cc(O)c(O)c(O)c2)[C@@H](OC(=O)c2cc(O)c(O)c(O)c2)[C@@H]1OC(=O)c1cc(O)c(O)c(O)c1)c1cc(O)c(O)c(O)c1 — result for inhibition: “inhibited” (P4HB (Homo sapiens, UniProt P07237); insulin reduction; 20 µM).
For O=C(CN1CCO[C@H](COc2cccc(Cl)c2)C1)N1CCc2ccccc21, the inhibition was -16.3% (HTR1E (Homo sapiens, UniProt P28566); radioligand binding; concentration not given, together with: [3H]5-HT).
The inhibition of Cc1nc(N2CCCC(NCCc3ccccc3F)CC2)nc2ccc(F)cc12 (stereo not shown) is reported as 31.8% (Luciferin 4-monooxygenase; luciferase luminescence, inhibitor; cell-free; 50 µM, counter-screen).

Repeated from above:
With Cc1ccc(N(O)N=Nc2ccc(S(=O)(=O)Nc3cc(C)on3)cc2)cc1 the inhibition was 30 ± 0.791% (α-glucosidase, rat intestine; enzyme activity; 120 µg/mL, together with: 4-nitrophenyl α-D-glucopyranoside).
CC[C@@H]1[C@H](F)C(=O)N[C@@H]1COc1nccc2cc(C(N)=O)c(OC)cc12 gave an inhibition of 23.1% (STE20-related kinase adapter protein beta (Homo sapiens, UniProt Q9C0K7); ATP probe binding, KiNativ profiling, refers to: Lys1 probe site; THP-1 cell lysate; 0.04 mM).
With CCN(O)N=Nc1ccc(S(=O)(=O)Nc2nccs2)cc1 the inhibition was 20 ± 1.38% (α-glucosidase, rat intestine; enzyme activity; 60 µg/mL, together with: 4-nitrophenyl α-D-glucopyranoside).
